# Published values pooled from the literature.
# Sequences of proteins named here, by UniProt entry; tags and fusion partners are left off. A change or cut given only in a name is not applied to a line headed by its entry. Residues count along the entry.
# UniProt Q04609, whole entry: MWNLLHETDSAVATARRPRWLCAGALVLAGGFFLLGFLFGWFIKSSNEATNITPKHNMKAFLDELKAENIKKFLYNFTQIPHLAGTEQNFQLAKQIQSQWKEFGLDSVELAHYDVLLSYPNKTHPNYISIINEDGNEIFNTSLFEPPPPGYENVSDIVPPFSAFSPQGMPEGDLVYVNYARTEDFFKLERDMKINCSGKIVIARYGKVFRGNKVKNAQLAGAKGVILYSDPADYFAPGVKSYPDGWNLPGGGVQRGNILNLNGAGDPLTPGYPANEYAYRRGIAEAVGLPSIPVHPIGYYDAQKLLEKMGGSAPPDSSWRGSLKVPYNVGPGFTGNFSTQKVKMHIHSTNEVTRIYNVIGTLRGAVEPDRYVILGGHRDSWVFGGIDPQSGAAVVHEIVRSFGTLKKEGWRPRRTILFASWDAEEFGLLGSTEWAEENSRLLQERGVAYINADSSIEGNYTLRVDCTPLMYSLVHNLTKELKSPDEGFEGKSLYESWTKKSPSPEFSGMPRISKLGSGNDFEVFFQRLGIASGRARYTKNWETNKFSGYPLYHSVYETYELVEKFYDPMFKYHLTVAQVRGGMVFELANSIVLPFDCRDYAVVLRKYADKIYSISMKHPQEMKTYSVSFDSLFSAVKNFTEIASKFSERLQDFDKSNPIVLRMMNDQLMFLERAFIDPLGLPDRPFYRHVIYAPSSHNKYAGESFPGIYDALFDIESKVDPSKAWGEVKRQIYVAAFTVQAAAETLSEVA
# UniProt Q5S007, whole entry: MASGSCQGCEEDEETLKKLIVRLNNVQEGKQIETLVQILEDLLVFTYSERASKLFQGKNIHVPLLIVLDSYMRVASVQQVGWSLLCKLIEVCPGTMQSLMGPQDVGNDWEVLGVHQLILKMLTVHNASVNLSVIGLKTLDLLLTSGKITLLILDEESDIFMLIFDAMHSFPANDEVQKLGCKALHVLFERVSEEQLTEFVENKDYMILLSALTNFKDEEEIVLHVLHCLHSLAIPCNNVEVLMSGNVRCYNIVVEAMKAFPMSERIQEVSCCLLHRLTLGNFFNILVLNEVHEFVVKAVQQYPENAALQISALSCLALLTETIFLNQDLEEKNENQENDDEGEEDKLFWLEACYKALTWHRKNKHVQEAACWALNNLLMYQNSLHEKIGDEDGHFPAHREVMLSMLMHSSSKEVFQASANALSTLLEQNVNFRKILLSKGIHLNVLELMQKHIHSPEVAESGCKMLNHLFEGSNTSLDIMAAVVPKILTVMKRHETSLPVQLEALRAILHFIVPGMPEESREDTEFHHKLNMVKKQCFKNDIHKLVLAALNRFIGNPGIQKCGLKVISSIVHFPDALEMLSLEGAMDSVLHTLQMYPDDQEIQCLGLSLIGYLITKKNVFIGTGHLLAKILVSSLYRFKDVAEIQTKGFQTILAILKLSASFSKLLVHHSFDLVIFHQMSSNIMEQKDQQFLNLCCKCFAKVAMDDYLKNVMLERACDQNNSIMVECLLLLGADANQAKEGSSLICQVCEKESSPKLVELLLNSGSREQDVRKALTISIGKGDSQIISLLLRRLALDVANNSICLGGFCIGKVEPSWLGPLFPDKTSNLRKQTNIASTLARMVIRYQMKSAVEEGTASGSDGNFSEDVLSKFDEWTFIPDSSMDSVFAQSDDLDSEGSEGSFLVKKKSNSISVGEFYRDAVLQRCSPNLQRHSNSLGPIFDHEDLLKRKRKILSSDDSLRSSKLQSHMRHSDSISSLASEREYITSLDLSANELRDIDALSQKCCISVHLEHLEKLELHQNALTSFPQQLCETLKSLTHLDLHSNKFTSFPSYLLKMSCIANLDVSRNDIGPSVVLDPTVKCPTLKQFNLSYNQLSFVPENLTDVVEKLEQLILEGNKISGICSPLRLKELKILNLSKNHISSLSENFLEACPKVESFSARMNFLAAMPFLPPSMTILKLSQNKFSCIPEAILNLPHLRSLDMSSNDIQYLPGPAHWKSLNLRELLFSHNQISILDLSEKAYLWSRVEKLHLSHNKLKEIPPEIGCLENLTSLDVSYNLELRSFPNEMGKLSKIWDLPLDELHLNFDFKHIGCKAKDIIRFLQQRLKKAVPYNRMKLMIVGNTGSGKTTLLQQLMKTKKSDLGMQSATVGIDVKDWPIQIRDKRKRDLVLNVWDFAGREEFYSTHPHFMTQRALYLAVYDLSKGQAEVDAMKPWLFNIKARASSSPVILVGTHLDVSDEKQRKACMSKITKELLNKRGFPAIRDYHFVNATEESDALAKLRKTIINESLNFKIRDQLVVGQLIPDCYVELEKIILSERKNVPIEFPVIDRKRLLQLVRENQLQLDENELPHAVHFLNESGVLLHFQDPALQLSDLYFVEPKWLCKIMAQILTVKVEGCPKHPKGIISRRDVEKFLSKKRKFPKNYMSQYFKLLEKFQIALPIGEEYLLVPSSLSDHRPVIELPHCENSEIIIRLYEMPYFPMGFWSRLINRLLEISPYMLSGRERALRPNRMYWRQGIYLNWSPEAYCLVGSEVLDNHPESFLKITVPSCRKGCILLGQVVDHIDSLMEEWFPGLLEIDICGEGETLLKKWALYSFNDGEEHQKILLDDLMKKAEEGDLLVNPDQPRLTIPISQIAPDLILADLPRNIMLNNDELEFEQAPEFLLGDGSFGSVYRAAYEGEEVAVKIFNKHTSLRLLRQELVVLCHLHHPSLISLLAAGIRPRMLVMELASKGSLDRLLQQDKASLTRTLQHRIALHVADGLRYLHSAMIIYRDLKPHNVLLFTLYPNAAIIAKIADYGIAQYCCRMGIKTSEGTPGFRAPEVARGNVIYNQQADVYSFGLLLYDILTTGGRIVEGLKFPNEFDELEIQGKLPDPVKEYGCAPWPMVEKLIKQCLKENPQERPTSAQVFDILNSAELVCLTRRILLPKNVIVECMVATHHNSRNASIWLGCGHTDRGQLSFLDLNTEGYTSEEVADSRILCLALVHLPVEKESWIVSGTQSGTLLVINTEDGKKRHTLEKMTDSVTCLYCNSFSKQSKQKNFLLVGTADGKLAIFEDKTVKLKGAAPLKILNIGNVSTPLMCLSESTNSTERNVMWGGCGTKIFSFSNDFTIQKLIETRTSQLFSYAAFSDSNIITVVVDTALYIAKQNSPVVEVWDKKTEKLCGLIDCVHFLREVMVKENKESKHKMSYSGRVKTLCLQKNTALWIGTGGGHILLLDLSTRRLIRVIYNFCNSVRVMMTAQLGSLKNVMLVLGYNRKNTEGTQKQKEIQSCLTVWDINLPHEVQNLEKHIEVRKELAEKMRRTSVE
# UniProt A4HTR0, 1-443: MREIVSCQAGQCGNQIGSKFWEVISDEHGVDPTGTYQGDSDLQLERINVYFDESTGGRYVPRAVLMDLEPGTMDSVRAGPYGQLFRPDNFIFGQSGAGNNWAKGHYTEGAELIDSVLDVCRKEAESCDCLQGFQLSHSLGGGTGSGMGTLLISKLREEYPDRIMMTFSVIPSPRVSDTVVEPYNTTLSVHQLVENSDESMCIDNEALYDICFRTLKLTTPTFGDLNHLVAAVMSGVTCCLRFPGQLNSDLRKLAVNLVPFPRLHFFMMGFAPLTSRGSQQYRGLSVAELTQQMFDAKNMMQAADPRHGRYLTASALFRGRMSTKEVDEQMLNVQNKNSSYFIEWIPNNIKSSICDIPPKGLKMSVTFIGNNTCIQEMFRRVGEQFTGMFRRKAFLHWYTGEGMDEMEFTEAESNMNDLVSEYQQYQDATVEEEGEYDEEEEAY
# UniProt Q07440, whole entry P104K/C113S, looked up: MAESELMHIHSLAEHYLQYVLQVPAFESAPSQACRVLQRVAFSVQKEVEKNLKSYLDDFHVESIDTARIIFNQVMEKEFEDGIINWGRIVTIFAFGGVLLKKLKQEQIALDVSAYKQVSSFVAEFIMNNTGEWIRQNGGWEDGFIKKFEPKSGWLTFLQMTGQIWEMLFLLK
# UniProt P05067, whole entry, looked up: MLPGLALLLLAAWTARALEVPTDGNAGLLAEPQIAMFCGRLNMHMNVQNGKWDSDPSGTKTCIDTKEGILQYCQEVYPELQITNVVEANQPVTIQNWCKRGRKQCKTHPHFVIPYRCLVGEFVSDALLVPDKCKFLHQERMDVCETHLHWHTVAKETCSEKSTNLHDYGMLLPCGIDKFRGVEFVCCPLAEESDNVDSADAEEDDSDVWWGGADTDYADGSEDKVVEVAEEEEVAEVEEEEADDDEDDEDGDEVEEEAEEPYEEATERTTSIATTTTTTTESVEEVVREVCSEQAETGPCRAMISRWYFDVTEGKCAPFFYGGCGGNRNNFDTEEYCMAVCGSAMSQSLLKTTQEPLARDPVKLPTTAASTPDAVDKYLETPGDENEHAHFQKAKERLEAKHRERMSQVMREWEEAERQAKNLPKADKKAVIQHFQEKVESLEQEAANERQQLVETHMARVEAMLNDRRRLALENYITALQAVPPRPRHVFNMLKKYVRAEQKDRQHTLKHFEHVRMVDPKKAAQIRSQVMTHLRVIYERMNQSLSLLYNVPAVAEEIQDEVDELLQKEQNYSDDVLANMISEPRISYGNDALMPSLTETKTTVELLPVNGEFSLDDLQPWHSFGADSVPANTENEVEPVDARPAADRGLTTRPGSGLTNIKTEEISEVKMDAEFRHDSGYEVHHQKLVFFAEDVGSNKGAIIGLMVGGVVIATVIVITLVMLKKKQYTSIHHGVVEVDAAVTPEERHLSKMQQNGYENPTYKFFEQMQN
# UniProt Q8TF76, whole entry: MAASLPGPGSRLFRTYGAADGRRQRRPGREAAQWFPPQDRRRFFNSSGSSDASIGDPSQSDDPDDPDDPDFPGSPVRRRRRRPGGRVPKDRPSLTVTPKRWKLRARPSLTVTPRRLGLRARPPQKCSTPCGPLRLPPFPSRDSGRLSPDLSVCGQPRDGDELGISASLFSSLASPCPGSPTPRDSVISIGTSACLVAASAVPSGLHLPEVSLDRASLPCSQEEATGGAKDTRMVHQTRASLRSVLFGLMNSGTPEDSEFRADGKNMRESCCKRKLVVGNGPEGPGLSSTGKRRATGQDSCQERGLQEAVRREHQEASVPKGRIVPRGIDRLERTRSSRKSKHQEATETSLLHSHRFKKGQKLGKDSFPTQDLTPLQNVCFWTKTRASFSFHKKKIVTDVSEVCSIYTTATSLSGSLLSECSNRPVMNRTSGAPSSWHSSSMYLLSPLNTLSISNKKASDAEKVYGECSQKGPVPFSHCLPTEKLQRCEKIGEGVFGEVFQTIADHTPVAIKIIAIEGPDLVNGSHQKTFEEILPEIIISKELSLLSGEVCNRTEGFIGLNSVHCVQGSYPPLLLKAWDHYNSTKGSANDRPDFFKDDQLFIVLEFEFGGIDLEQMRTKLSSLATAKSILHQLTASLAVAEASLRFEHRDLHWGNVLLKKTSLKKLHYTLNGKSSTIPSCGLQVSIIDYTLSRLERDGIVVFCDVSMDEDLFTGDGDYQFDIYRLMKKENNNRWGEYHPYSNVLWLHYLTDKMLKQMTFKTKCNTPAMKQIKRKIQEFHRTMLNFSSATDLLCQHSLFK
# UniProt Q9BV23, whole entry: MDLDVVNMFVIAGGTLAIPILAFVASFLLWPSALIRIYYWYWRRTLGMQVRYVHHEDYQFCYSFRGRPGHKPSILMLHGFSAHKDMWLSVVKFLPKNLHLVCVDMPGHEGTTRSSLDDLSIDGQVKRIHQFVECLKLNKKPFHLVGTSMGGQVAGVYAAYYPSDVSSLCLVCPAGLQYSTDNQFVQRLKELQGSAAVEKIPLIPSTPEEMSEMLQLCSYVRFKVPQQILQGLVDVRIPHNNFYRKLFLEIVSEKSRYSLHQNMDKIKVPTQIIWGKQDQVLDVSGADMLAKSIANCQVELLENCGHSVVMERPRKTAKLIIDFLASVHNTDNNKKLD
# UniProt O00311, whole entry: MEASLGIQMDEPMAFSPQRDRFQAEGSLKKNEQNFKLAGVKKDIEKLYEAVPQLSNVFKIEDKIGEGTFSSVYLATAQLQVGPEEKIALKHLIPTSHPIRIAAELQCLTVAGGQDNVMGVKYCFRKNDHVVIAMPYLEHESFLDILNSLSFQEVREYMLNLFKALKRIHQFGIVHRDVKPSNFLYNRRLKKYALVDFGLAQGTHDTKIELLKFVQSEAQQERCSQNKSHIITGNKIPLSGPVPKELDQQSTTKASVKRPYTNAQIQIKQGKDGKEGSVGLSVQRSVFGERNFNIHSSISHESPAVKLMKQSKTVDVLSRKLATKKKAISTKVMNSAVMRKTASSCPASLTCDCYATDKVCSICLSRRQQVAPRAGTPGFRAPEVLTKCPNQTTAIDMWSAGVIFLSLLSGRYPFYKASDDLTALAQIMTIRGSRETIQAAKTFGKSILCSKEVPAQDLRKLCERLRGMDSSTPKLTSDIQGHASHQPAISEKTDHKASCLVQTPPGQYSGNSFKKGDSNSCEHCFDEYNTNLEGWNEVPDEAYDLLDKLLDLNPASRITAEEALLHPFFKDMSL
# Each line is one published result; not all experiments were run side by side. ± gives the spread as reported.
Compound,target,test,test system,setting,scale,IC50
CCCS(=O)(=O)N(C)C(CCC(=O)O)C(=O)O (stereo not shown),"FOLH1 (Homo sapiens, UniProt Q04609)","enzyme activity, inhibitor, HPLC",,"15 min, pH 7.4, 37 °C, 1% Triton X-100, together with: 10 mM glutamate dipeptide substrate",,> 100 µM
O=C(O)c1ccnc(N2CC3CC(c4ccccc4C(F)(F)F)CC3C2)n1 (stereo not shown),"Transthyretin (TTR, Homo sapiens, UniProt P02766)","binding, fluorescence polarization",,together with: 25 µM FITC-labelled probe,,2.5 µM
CC(C)Oc1cc(C(=O)N2CCC(N3CCN(C)CC3)CC2)ccc1Nc1ncc2c(n1)N(C(C)C)c1ccccc1C(=O)N2C,"LRRK2 (Homo sapiens, UniProt Q5S007)","kinase activity, Adapta",,,,0.235 ± 0.034 µM
COc1ccc2[nH]cc(/C=C/c3ccc(OS(=O)(=O)c4ccc(C)cc4)cc3)c2c1,"IDO1 (Homo sapiens, UniProt P14902)","enzyme activity, inhibitor",,,,> 100 µM
COc1cc([C@@H]2c3cc4c(cc3[C@H](C=C(C)C)[C@H]3COC(=O)[C@H]23)OCO4)cc(OC)c1OC,"Tubulin alpha/beta heterodimer (Leishmania infantum, UniProt A0A381MCS3+A4HTR0)","tubulin polymerization, inhibitor",,"37 °C, together with: tubulin 1.2 mg/mL",,3.4 ± 0.3 µM
Cc1ccc(NC(=O)c2cc3ccccc3c(N=Nc3ccccc3O)c2O)c(C)c1,"Bcl-2-related protein A1 (Mus musculus, UniProt Q07440, C113S/P104K)","binding, fluorescence polarization",,together with: FITC-Noxa peptide,,13.8 µM
O=C(O)c1cc(C(=O)N2CCC[C@H]2C(=O)O)cc([C@H]2CCN[C@@H]2C(=O)O)c1,"Glutamate receptor ionotropic, NMDA 2A, with GluN1 (Grin2a, Rattus norvegicus, UniProt Q00959)","ion current, antagonist, two-electrode voltage clamp",Xenopus oocytes,"GluN1/GluN2A, together with: glycine 100 µM and glutamate 1 µM",,1 ± 0.06 µM
CCc1ccccc1SCC(=O)Nc1ccc2nc(SCC(=O)NC(C)(C)C)sc2c1,"Estrogen receptor (ESR1, Homo sapiens, UniProt P03372)","reporter gene, antagonist",HEC-1 transfected ERα luciferase reporter,,,20 to 50 µM
Cc1c(N)cccc1C(=O)N1C[C@H](O)C[C@H]1C(=O)NCc1ccc(-c2cnco2)cc1,"von Hippel-Lindau disease tumor suppressor, with elongin B, C (VHL, Homo sapiens, UniProt P40337)","binding, fluorescence polarization",,"10% DMSO, together with: FAM-HIF1α peptide tracer",,18.9 ± 2.3 µM
COc1cc(C=C(C(=O)/C=C/c2cc(OC)c(OC)c(OC)c2)C(=O)/C=C/c2cc(OC)c(OC)c(OC)c2)cc(Br)c1O,"BAP1 (Homo sapiens, UniProt Q92560)",inhibitor,,together with: Ub-AMC substrate,,0.2 ± 0.0273 µM
N#Cc1ccc2[nH]cc(/C=C/c3c[nH]c4ccccc34)c2c1,"Amyloid-beta precursor protein, amyloid-beta peptide (APP, Homo sapiens, UniProt P05067)","Aβ42 oligomerisation, ELISA",,,,4.6 µM
Nc1c(Cl)ccc2cccnc12,"METAP1 (Homo sapiens, UniProt P53582)","enzyme activity, inhibitor",,,,> 40 µM
O=C(NC1CC=C(c2cc3c(Nc4cc5ncsc5cc4F)ncnc3s2)CC1)NC1CCCCC1 (stereo not shown),"RIPK2 (Homo sapiens, UniProt O43353)","kinase activity, inhibitor",,,,0.017 µM
COc1ccc2nc3ccc(OC)cc3c(SCCCN(C)C)c2c1,"HASPIN (Homo sapiens, UniProt Q8TF76)","inhibitor, TR-FRET",,together with: histone H3 peptide,,0.046 µM
O=C(OC(C(F)(F)F)C(F)(F)F)N1CCc2cc(Br)ccc2C1,"ABHD6 (Homo sapiens, UniProt Q9BV23)","inhibitor, fluorescence",,,,0.0727 ± 0.0015 µM
CN1CCC[C@@H]1C(=O)N[C@@H](Cc1ccc(-c2ccccn2)cc1)B(O)O,"Proteasome subunit beta type-2, β2 subunit (Plasmodium falciparum, UniProt Q8I261+Q8I6T3)","enzyme activity, inhibitor",,together with: Ac-WLR-AMC,,> 10 µM
CC(C)(N)c1nc2cc(-c3ccnc(F)c3)sc2c(=O)[nH]1,"CDC7 (Homo sapiens, UniProt O00311)","enzyme activity, inhibitor",,,,1.32 ± 0.0529 µM
O=C(Cn1c(-c2nccs2)nc2ccccc21)Nc1ccc(Cl)cc1,"IMPDH2 (Homo sapiens, UniProt P12268)","enzyme activity, inhibitor",,,lower bound,≥ 40 µM
O=C(Nc1cccc(-c2nc3ccccc3s2)c1)c1ccc([N+](=O)[O-])cc1,"Tyrosine-protein kinase SYK, with FCER1G (SYK, Homo sapiens, UniProt P43405)","protein binding, inhibitor, TR-FRET",,,,> 100 µM
